Results of several laboratories.
Every numbered part comes from another study and shows a few of its results, in no order.

Block 1 — technique: protein binding microarray; form: double-stranded DNA, one strand shown; sample: in vitro; tested at: not given; relative to: not given; direction: higher = stronger binding; measurement: E-score
Target: Histone acetyltransferase KAT6A, winged helix 1, GST fusion (KAT6A, Homo sapiens, UniProt Q92794, residues 1-85)
Notes: 8-mer, flanks averaged, mean of 2 arrays, mostly near background
Target sequence (chain): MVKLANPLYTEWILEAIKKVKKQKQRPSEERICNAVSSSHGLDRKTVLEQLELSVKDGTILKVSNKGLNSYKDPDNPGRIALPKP
Sequence = ACACCTAG; value = -0.146
Sequence = CAGTCCCG; value = 0.258
Sequence = ACCTGTTA; value = -0.255
Sequence = AAAAGACA; value = -0.117

Block 2 — technique: protein-binding microarray; form: double-stranded DNA, one strand shown; sample: in vitro; tested at: 250 nM; notes: 60-bp whole probe; together with: salmon DNA 0.4 mg/ml; relative to: random background probes; direction: higher = stronger binding; measurement: log fluorescence; shared flanks, not repeated: GCCTAGCAC … GTCTTGATTCGCTTGACGCTGCTG
Target: Interferon regulatory factor 5, full length, phosphomimetic (IRF5, Homo sapiens, UniProt Q13568-2, residues 1-514, K96S/S451D/S453D/S456D/S462D)
Sequence = GACGATATCGGGTATCGGGACGTGCTA; value = 2.57 z-score
Sequence = GACGGTTTCGGACTCGGGACGTGCTAG; value = 3.79 z-score
Sequence = TTTGGTTTCGGTCTCGGTTAGTGCTAG; value = 11.3 z-score
Sequence = GACGTTTTCGGACTGGGGACGTGCTAG; value = 2.14 z-score
Sequence = TTAGAACTGAGTATCGATTTGTGCTAG; value = 5.83 z-score
Sequence = TTCTCAACCAGTTTTCTTTTCGTGCTA; value = 1.5 z-score
Sequence = TCAGGTCTCTTGTTCTCACTGTGCTAG; value = -0.0883 z-score

Block 3 — target: Sox, HMG box (Pigoraptor chileana); technique: Spec-seq; form: double-stranded DNA, one strand shown; sample: in vitro; tested at: not given; notes: whole probe, mean of replicates; relative to: not given; direction: lower = stronger binding; measurement: relative binding energy; shared flanks, not repeated: GAGTCGTCTCGTCAGCAC … CCGTAGAGCACTCAGGTC
Construct (chain): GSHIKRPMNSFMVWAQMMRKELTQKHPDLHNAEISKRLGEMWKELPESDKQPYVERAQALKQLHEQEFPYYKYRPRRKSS
Sequence = CATCGCG; value = 0.919 ln ratio
Sequence = TGGTGTT; value = 0.23 ln ratio
Sequence = GGGGGTT; value = 1.45 ln ratio
Sequence = CATATCA; value = 0.18 ln ratio
Sequence = TGTCGTT; value = 0.288 ln ratio
Sequence = CATGCAA; value = 0.457 ln ratio

Single results of other studies
Substance = PhoQ, residues 284 288 289 292 302 303 TLASMF; target = PhoP, residues 12 14 15 18 19 GQAIL (Escherichia coli, UniProt P23836); assay = Sort-seq, measured: YFP reporter; test system = E. coli; conditions = PhoQ-PhoP variant library, together with: 10 µM Mg2+; how to read = relative to: high Mg2+ state, higher = stronger signaling; measurement = fold induction; value = 13.5
